Published values from different studies.
Each line is one published result; not all experiments were run side by side. ± gives the spread as reported.

Compound | organism | test | test system | conditions | EC50 [µM]
CNC(=O)c1ccc(-c2cnn3ccc(C(=O)N(CCC(=O)OCC(=O)N(C)C)c4ccc(Cl)cc4)cc23)cc1 | Cryptosporidium parvum | cytopathic effect | HCT-8 | 48 h | > 20
O=C(/C=C/c1ccc(CN2CCCCC2)c(O)c1)c1ccc(F)cc1 | Plasmodium knowlesi | parasite growth |  | 24 h, blood stage | 2.64
O=[N+]([O-])c1cn2c(n1)OC[C@H](Oc1ccc(OC(F)(F)F)cc1)C2 | Leishmania tropica | parasite growth | mouse Peritoneal macrophage | 72 h, intracellular, amastigote | 1.33
CC1CCN(Cc2ccc(/C=C/C(=O)c3ccc(Cl)cc3)cc2O)CC1 | Plasmodium knowlesi | parasite growth |  | 24 h, blood stage | 31.8
Nc1nc2c(ncn2COCCO)c(=O)[nH]1 | Human alphaherpesvirus 1 | cytopathic effect | HFF, E-377 |  | 0.87
CCOC(=O)C1=C(CN2CCOCC2)NC(c2nccs2)=NC1c1ccc(F)cc1Br (stereo not shown) | hepatitis B virus | viral replication, chemiluminescence immunoassay, measured: secreted HBeAg | HBV-infected HepG2-NTCP cells | 7 days post-infection, dosed from 24 h pre-infection | 0.804 ± 0.045
N=C(N)N | Enterovirus A71 | cytopathic effect, inhibitor, neutral red uptake | RD cells, Tainan/4643/98 | 37 °C, no MgCl2 | 305 ± 5
O=C(/C=C/c1ccc(O)cc1)c1ccc(F)cc1 | Plasmodium knowlesi | parasite growth |  | 24 h, blood stage | 78.9
CC1(C)[C@@H](O[C@H]2O[C@H](C(=O)O)[C@@H](O)[C@H](O)[C@H]2O[C@@H]2O[C@H](C(=O)O)[C@@H](O)[C@H](O)[C@H]2O)CC[C@]2(C)[C@H]3C(=O)C=C4[C@@H]5C[C@@](C)(C(=O)O)CC[C@]5(C)CC[C@@]4(C)[C@]3(C)CC[C@@H]12 | Epstein-Barr virus | EA/VCA antigen expression, indirect immunofluorescence | superinfected Raji cells | 24 h | 38
O=C(/C=C/c1ccc(O)cc1)c1ccc(Cl)cc1 | Plasmodium knowlesi | parasite growth |  | 24 h, blood stage | 35.5
NC(=O)c1ncn([C@@H]2O[C@H](CO)[C@@H](O)[C@H]2O)n1 | dengue virus 2 | viral infection, immunodetection | A549, TSV01 | 48 h | 3
C#CCNC(=O)C(=O)c1c(C)c(C(=O)Nc2ccc(F)c(F)c2)n(C)c1C | hepatitis B virus | viral replication, chemiluminescence immunoassay, measured: secreted HBeAg | HBV-infected HepG2-NTCP cells | 7 days post-infection, dosed from 24 h pre-infection | 0.872 ± 0.064
COc1cc(/C=C2\CC/C(=C\c3ccc(O)c(OC)c3)C2=O)ccc1O | dengue virus 2 | viral replication | BHK-21 DENV2 replicon | 24 h | 29.2 ± 4.46

For quick reference, copied from above:
Compound | organism | test | test system | conditions | EC50 [µM]
Nc1nc2c(ncn2COCCO)c(=O)[nH]1 | Human alphaherpesvirus 1 | cytopathic effect | HFF, E-377 |  | 0.87
O=[N+]([O-])c1cn2c(n1)OC[C@H](Oc1ccc(OC(F)(F)F)cc1)C2 | Leishmania tropica | parasite growth | mouse Peritoneal macrophage | 72 h, intracellular, amastigote | 1.33
